Experimental data of several laboratories.
Protocols differ between the studies behind these lines. ± marks the error that the study gave.

Compound | cell line | assay | system | setting | how to read | endpoint | value
Cc1cc(Nc2ncc(Cl)c(Nc3ccccc3S(=O)(=O)C(C)C)n2)c(OC(C)C)cc1C1CCNCC1 | CLB-BAR | phosphoproteomics LC-MS/MS, refers to: EEF2K phosphorylation |  | 200 nM, 60 min | reference: untreated | log2 fold change | -3.72
N#Cc1cc(Nc2ncc3c(n2)CCCCC3=O)cs1 | mouse CD4+CD25+ Treg cells | T cell proliferation |  | dose not given |  | Treg suppressive function | no effect
C[S+]([O-])c1ccc(-c2nc(-c3ccncc3)c(-c3ccc(F)cc3)[nH]2)cc1 (centres unmarked) | mouse bone marrow macrophages | TRAP-positive multinucleated cells |  | 10 µM, 96 h, late stage, with: RANKL | reference: control | osteoclastogenesis | 62%
C=CC(=O)Nc1cc(Nc2nccc(-c3cn(C)c4ccccc34)n2)c(OC)cc1N(C)CCN(C)C | PC-9 | qRT-PCR, refers to: mTOR |  | 8 µM, 24 h | reference: control | mRNA level | ~466 fold
CCC(C)(C)C(=O)O[C@H]1C[C@@H](C)C=C2C=C[C@H](C)[C@H](CC[C@@H]3C[C@@H](O)CC(=O)O3)[C@H]21 | BT-16 | cell viability, MTT |  | 10 µM, 72 h |  | inhibition | 94.1%
CCc1cnc(N2CCC(c3nc(COc4ccc(-n5cnnn5)cc4)cs3)CC2)nc1 | HEK-293T | RNA-seq GSEA, refers to: HALLMARK_UNFOLDED_PROTEIN_RESPONSE |  | concentration not given | direction not given | normalized enrichment score | 2.04
Cn1cc(-c2ccc(-c3cncc(Cl)c3N3CCC4(CCNC4=O)CC3)cc2)cn1 | COLO 205 | gene expression, microarray, refers to: HIST4H4 mRNA |  | concentration not given, 6 h | reference: untreated cells | log2 fold change | -1.42
Cc1cccc(-c2[nH]c(CNc3ccccc3F)nc2-c2ccc3ncnn3c2)n1 | bone marrow CD138+ myeloma cells | XTT |  | 1.8 µM, mean of three patients |  | viability | 7%
CCCCc1nc(Cl)c(CO)n1Cc1ccc(-c2ccccc2-c2nn[nH]n2)cc1 | human PBMC | RNA-seq, refers to: SMPDL3A mRNA |  | 10 µg/mL, 24 h | reference: untreated control | log2 fold change | 1.86
COC(=O)N[C@H](C(=O)N[C@@H](Cc1ccccc1)[C@@H](O)CN(Cc1ccc(-c2ccccn2)cc1)NC(=O)[C@@H](NC(=O)OC)C(C)(C)C)C(C)(C)C | ΔE-expressing cells | ΔE mislocalization, high-content imaging |  |  |  | maximal efficacy | inactive
CC(C)NCC(O)c1ccc(O)c(O)c1 (centres unmarked) | mouse ventricular cardiomyocytes |  |  | dose not given, 0.123 s |  | sarcomere length | 1.63 µm
CC(C)C[C@@H](C=O)NC(=O)[C@H](CC(C)C)NC(=O)[C@H](CC(C)C)NC(=O)OCc1ccccc1 | HEK293 expressing HA-FLuc | western blot | total extract | concentration not given, unit not given | reference: mock | HA-FLuc protein level | 1.08
CC/C(=N\NC(=O)C(C)Nc1ccccc1)c1ccc(O)c(C)c1O (centres unmarked) | SK-OV-3 | Western blot, refers to: TAZ |  | 10 µM, 1 h, 3D gellan gum culture, unit not given | reference: β-actin | protein level | 1.12 ± 0.33
CCn1cc(-c2cc(Cn3ccnc3)cc3c2CCN([C@H](c2cc(OC)ccn2)C2CC2)C3=O)c(C(F)(F)F)n1 | HCC1588 | cell growth, inhibitor |  | 120 h |  | EC50 | 8.09 µM
CC(C)n1c(/C=C/C(O)CC(O)CC(=O)O)c(-c2ccc(F)cc2)c2ccccc21 (centres unmarked) | BT-16 | cell viability, MTT |  | 10 µM, 72 h |  | inhibition | 92.9%
COc1cc(-c2cnc(C)n2C)ccc1Nc1ncc2cc(C)nc(NCC(C)(C)C)c2n1 | CAL-51 | cell growth |  | 72 h |  | GI50 | 0.7 µM
CC(/C=C/C(=O)NO)=C\[C@@H](C)C(=O)c1ccc(N(C)C)cc1 | BT-16 | cell viability, MTT |  | 10 µM, 72 h |  | inhibition | 94.3%
CNC(=O)c1ccccc1Sc1ccc2c(N)n[nH]c2c1 | Ba/F3 TEL-VEGFR1 | cell growth, CCK-8 |  |  |  | GI50 | 1.3 µM
CC[C@]1(O)C[C@@H]2CN(CCc3c([nH]c4ccccc34)[C@@](C(=O)OC)(c3cc4c(cc3OC)N(C)[C@H]3[C@@](O)(C(=O)OC)[C@H](OC(C)=O)[C@]5(CC)C=CCN6CC[C@]43[C@@H]65)C2)C1 | BT-16 | cell viability, MTT |  | 10 µM, 72 h |  | inhibition | 87.9%
COc1cnc2cccc(N3CCc4c(cc(Cn5ccnc5C)cc4-c4cn(C)nc4C(F)(F)F)C3=O)c2c1 | HCC1588 | cell growth, inhibitor |  | 120 h |  | EC50 | 11.9 µM

Some of these lines once more:
Compound | cell line | assay | system | setting | how to read | endpoint | value
CC(C)C[C@@H](C=O)NC(=O)[C@H](CC(C)C)NC(=O)[C@H](CC(C)C)NC(=O)OCc1ccccc1 | HEK293 expressing HA-FLuc | western blot | total extract | concentration not given, unit not given | reference: mock | HA-FLuc protein level | 1.08
